Assay results gathered from unrelated publications.
Protocols differ between the studies behind these lines.
Cell line: HEK293

| SMILES | test | conditions | measurement | value |
| --- | --- | --- | --- | --- |
| CC[C@H]1OC(=O)[C@H](C)[C@@H](OC(=O)Cc2cccc3ccccc23)[C@H](C)[C@@H](O[C@@H]2O[C@H](C)C[C@H](N(C)C)[C@H]2O)[C@](C)(OC)C[C@@H](C)C(=O)[C@H](C)[C@@H](O)[C@]1(C)O | cell growth or viability | – | CC50 | > 32 µg/mL |
| CC[C@H](C)[C@@H](C(=O)N[C@@H](Cc1ccc(O)cc1)C(=O)N1CCC[C@H]1C(=O)N[C@@H](Cc1ccccc1)C(=O)O)n1cc(C(Cc2ccc(O)cc2)NC(=O)[C@@H](NC(=O)[C@H](CCCNC(=N)N)NC(=O)[C@@H](N)CC(=O)O)C(C)C)nn1 (stereo partly drawn) | cell growth or viability, MTT | 200 µM, 24 h | viability | 67.3% |
| N=C(N)NCCC[C@@H]1NC(=O)[C@H](CCCNC(=N)N)NC(=O)[C@@H](C(c2ccccc2)c2ccccc2)NC(=O)[C@H](Cc2c[nH]c3ccccc23)NC(=O)[C@@H](C(c2ccccc2)c2ccccc2)NC(=O)[C@@H](CCCNC(=N)N)NC(=O)[C@@H](CCCNC(=N)N)NC1=O | cell growth or viability, MTS | 100 µg/mL, 24 h | viability | > 90% |
| CC[C@H]1OC(=O)[C@H](C)[C@@H](OC(=O)c2ccc(N)cc2)[C@H](C)[C@@H](O[C@@H]2O[C@H](C)C[C@H](N(C)C)[C@H]2O)[C@](C)(OC)C[C@@H](C)C(=O)[C@H](C)[C@@H](O)[C@]1(C)O | cell growth or viability | – | CC50 | > 32 µg/mL |
| CN1CCCNC(=O)c2cccc(c2)C(=O)NCCCN(C)CCCNc2cccc3c2C(=O)c2cccc(c2C3=O)NCCC1 | cell growth or viability, CCK-8 | 5 µM, 48 h | viability | 12% |
| COc1c(Br)cc(CCNC2=CC3=NCCc4c[nH]c(c43)C2=O)cc1Br | cell growth or viability, MTT | 72 h | CC50 | 4 µM |
| c1cc2nc(c1)-c1cccc(n1)CCCc1ccc(cc1)OCCCCCCOc1ccc(cc1)CCC2 | cell growth or viability, MTT | 100 µM, 24 h | viability | 63.8% |
| CC[C@H]1OC(=O)[C@H](C)[C@@H](OC(=O)Cc2c(F)cc([N+](=O)[O-])cc2F)[C@H](C)[C@@H](O[C@@H]2O[C@H](C)C[C@H](N(C)C)[C@H]2O)[C@](C)(OC)C[C@@H](C)C(=O)[C@H](C)[C@@H](O)[C@]1(C)O | cell growth or viability | – | CC50 | > 32 µg/mL |
| Cc1ccc(-n2cc(CSc3nc4ccccc4n3Cc3cn(-c4ccc(C)cc4)nn3)nn2)cc1 | MTT | 500 ppm | viability | 7.02% |
